Assay results gathered from unrelated publications.
Lines come from different studies, so protocols differ.
Target: B2 bradykinin receptor (BDKRB2, Homo sapiens, UniProt P30411)
UniProt P30411, sequence (whole entry, looked up): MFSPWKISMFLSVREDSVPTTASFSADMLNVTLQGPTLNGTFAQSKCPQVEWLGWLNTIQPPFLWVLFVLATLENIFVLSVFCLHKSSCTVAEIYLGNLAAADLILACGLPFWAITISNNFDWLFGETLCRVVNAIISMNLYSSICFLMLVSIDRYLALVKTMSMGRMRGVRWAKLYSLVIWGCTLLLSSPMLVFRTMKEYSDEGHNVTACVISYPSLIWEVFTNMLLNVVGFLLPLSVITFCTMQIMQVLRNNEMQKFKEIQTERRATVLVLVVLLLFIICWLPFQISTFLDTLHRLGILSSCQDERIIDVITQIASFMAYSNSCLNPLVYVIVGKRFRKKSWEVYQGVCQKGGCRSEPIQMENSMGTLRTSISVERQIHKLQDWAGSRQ

| SMILES | assay | conditions | inhibition [%] |
| --- | --- | --- | --- |
| CCC(=O)N(C)c1ccc(Cl)c(Cl)c1 | ligand displacement, radioligand | 10 µM | < 10 |
| Cn1ccc2cc(-n3c(=O)[nH]c4sc5c(c4c3=O)CCCC5)ccc21 | cell-free assay, radioligand | 10 µM | 5 |
| C[Si](C)(C)C[C@@H](CN)CC(=O)O | ligand displacement, radioligand | 75 µM | -1 |
| O=C1c2sc(-c3ccc(N4CCC(F)C4)nc3F)nc2CCN1c1cccnc1 (centres unmarked) | ligand displacement, radioligand | 1 µM | 7 |
| C[Si]1(C[C@H](CN)CC(=O)O)CCCC1 | ligand displacement, radioligand | 70 µM | -14 |
| COCC(=O)N1CCc2cc(-c3csc(NC(=O)c4cc(OC)cc(OC)c4)n3)ccc21 | cell-free assay | 10 µM | 3 |
| CO[C@@H](C)c1c(NC(=O)Nc2cnc(-n3nccn3)c(C(F)(F)F)c2)cnc2sc(C)nc12 | ligand displacement, radioligand | 10 µM | 4.4 |
| Cc1[nH]nc2c1N=C(c1ccccc1Cl)c1cnc(N3CCOCC3)cc1N2 | cell-free assay | 10 µM | -1 |
